Experimental data pooled from the literature.
Numbers after ± are the reported error.
Target: Cytochrome P450 1A2 (CYP1A2, Homo sapiens, UniProt P05177)
Sequence of UniProt P05177 (whole entry, looked up): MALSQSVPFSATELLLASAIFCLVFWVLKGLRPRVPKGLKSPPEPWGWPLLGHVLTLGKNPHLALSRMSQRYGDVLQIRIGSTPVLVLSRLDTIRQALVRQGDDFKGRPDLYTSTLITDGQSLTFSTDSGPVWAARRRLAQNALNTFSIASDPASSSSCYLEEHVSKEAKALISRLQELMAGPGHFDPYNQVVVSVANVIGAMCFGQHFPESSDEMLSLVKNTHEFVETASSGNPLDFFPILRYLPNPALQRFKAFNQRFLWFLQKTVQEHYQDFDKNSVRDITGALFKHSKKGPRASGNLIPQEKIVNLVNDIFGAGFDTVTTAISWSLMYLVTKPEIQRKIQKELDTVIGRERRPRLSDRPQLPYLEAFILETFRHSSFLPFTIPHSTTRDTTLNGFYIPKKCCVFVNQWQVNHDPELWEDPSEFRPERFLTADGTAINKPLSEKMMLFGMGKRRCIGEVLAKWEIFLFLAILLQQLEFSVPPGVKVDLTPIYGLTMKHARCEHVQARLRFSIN

C#Cc1ccc2ccc(=O)oc2c1
kinact (enzyme activity, inhibitor; pH 7.6): 0.0015 s⁻¹

COc1cc(Sc2c(-c3cccnc3)[nH]c3ccccc23)cc(OC)c1OC
inhibition (enzyme activity, inhibitor, fluorescence; 1 µM, 15 min, pH 7.4): < 50%

Cn1c(=O)c2c(ncn2C)n(C)c1=O
AUC(0-inf) (human, plasma; oral, 200 mg, alone, geometric LS mean): 31700 ng·h/mL

COc1c2ccoc2c(OC)c2oc(=O)ccc12
remaining activity (recombinant microsomes; 8 µM, after 20 h dialysis at 4 °C, with: methoxyresorufin; reference: uninhibited dialysed control): 39 ± 6%

COc1cc(OC)c(Cl)c(CCc2cnc3ccn(S(=O)(=O)c4c[nH]cn4)c3n2)c1Cl
inhibition (enzyme activity, inhibitor; human, liver microsomes; 10 µM, 20 min, pH 7.4): 59%

COc1cc(Sc2c(-n3cncn3)[nH]c3ccccc23)cc(OC)c1OC
inhibition (enzyme activity, inhibitor, fluorescence; 1 µM, 15 min, pH 7.4): < 50%

C#Cc1ccc2cc(-c3ccccc3)c(=O)oc2c1
kinact (enzyme activity, inhibitor; pH 7.6): 0.0005 s⁻¹

NC(=S)NN=Cc1ncccc1N
inhibition (enzyme activity, inhibitor; human, liver microsomes; 6 µM, 15 min, pH 7.4): 23%

CC1=N[C@]2(C(=O)CO)[C@@H](C[C@H]3[C@@H]4C[C@@H](O)C5=CC(=O)C=C[C@]5(C)[C@H]4[C@@H](O)C[C@@]32C)O1
IC50 (pooled human liver microsomes; 30 min preincubation, with: NADPH): > 50 µM

C#Cc1ccc2c(C)c(C)c(=O)oc2c1C
kinact (enzyme activity, inhibitor; pH 7.6): 0.00733 s⁻¹

Cc1noc(C)c1Cn1cc(N2C(=O)N(Cc3cccc(O)c3)C(C)(C)C2=O)cn1
inhibition (enzyme activity, inhibitor, fluorescence; Sf9; 10 µM): 1%

COc1cc(CCc2cnc3ccn(S(=O)(=O)c4c[nH]cn4)c3n2)cc(OC)c1
inhibition (enzyme activity, inhibitor; human, liver microsomes; 10 µM, 20 min, pH 7.4): 60%

C#Cc1cc2oc(=O)ccc2cc1OC
kinact (enzyme activity, inhibitor; pH 7.6): 0.00583 s⁻¹
